# Published values gathered from unrelated publications.
# Numbered parts are unrelated; each lists some results of a single study. Substitutions count along the parent as printed.

# Block 1
# Target: Histone acetyltransferase KAT6A, winged helix 2, GST fusion (KAT6A, Homo sapiens, UniProt Q92794, residues 85-181)
# Technique: protein binding microarray
# Form: double-stranded DNA, one strand shown
# Medium: in vitro
# Concentration: not given
# Notes: 8-mer, flanks averaged, mean of 2 arrays, mostly near background
# Relative to: not given
# Direction: higher = stronger binding
# Residues (chain): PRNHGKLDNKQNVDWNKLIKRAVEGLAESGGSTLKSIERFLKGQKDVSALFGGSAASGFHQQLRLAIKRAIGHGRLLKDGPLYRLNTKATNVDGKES
Sequence,E-score
ACACAACA,0.0982
GTTCATTA,0.0314
TGCGGCAA,0.106
ACTAACAT,-0.0899
GTATTCCA,-0.0607
AGGGGCGC,0.00829
TGTGAACA,-0.0503
AAAGTAAT,0.0117
TGCTTACA,0.0356
GGAATAGA,-0.0301
GAATGAAA,0.0237
CGATATAC,-0.0318
AGGGTAGA,-0.0817
AAGATAGC,-0.0531
ATAGGAGG,-0.0254
CAATGCGC,0.012
GCCCATTA,-0.13

# Block 2
# Target: CCNB2, cyclin fold, Cln2 fusion (human)
# Technique: yeast growth competition, sequencing
# Medium: yeast
# Notes: weak parent motif
# Relative to: not given
# Direction: higher = stronger binding
# Starting sequence: RBL1 docking peptide (human); GSAKRRLFGEDPP
Variant,normalised enrichment score
GSAKRRLFGNDPP [E10N],0.512
GSAKRRLFPEDPP [G9P],0.201
GSAKRPLFGEDPP [R6P],-0.352
GSAKRYLFGEDPP [R6Y],-0.0362
GSAKFRLFGEDPP [R5F],-0.402
ASAKRRLFGEDPP [G1A],0.289
GSAKRRLFREDPP [G9R],0.195
GSAKRLLFGEDPP [R6L],-0.585
GSAKRRLFGEDPY [P13Y],-0.00986
GSAKKRLLGEDPP [R5K F8L],0.237
GSGKRRLFGEDPP [A3G],0.121
GSAKRRLYGEDPP [F8Y],-0.199
GSAIRRLFGEDPP [K4I],0.243
GSAKRRLFGEDPW [P13W],0.47
GSAKRRLFGEDPM [P13M],-0.206
GSAKRRLFGMDPP [E10M],0.476

# Block 3
# Target: ABI1, truncated, D143A, DHFR fusion (Arabidopsis thaliana)
# Technique: DHFR PCA, deep sequencing
# Medium: yeast
# Notes: methotrexate growth selection, single substitutions
# With: (+)-ABA 0.11 µM
# Relative to: wild-type fitted maximum
# Direction: higher = stronger binding
# Starting sequence: PYL1, truncated, DHFR fusion (Arabidopsis thaliana); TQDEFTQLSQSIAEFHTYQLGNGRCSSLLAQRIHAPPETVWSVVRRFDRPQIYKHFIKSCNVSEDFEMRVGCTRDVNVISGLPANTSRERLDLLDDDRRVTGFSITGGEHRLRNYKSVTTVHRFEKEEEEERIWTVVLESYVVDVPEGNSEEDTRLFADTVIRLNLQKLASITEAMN; partner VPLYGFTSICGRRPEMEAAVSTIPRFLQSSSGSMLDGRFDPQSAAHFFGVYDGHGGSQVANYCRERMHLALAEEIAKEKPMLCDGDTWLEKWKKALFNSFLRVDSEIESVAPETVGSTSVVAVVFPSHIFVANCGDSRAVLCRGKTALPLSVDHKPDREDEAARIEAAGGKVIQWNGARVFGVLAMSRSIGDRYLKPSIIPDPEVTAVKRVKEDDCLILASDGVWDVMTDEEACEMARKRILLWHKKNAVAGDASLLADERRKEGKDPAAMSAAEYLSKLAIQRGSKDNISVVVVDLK
Variant,relative binding score [%]
T73P,-1.87
D97Q,35.8
R98I,5.58
E151D,21.9
Q51W,-3.75
R88A,3.5
A13K,49.2
G108F,-1.29
E38L,-1.2
F5M,43.9
T135I,-1.51
G81M,8.66
D144R,-5.82
V143S,-2.18
T160M,8.47
E151Y,11.5
T101Q,-5.12
E67L,2.75
L156Y,-1.47
S150L,10
V100M,5.13

# Block 4
# Target: Prothrombin, mature alpha-thrombin (F2, Homo sapiens, UniProt P00734)
# Technique: aptamer microarray, sandwich
# Form: DNA with 2'F-ANA
# Medium: in vitro
# Concentration: 200 nM
# Notes: whole 15-mer aptamer, many near background
# With: Cy3 exosite-II aptamer, 400 nM
# Direction: higher = stronger binding
# Sequence: GGTTGGTGTGGTTGG
Modification,mean fluorescence intensity [a.u.]
2'F-ANA at 3 4 5 6 7 8 10 11 12 14 15,48.3
2'F-ANA at 1 2 3 4 10,80.2
2'F-ANA at 2 3 5 6 8 9 10 13 15,48.2
2'F-ANA at 2 3 4 6 9 10 14 15,160
2'F-ANA at 2 3 5 8 9 10 13 14,51.1
2'F-ANA at 1 3 5 6 8 10 12,82.7
2'F-ANA at 2 7 8 9 10 11 12 13 14 15,88.3
2'F-ANA at 2 4 6 8 10 12 13 14,56.2
2'F-ANA at 1 2 4 5 10 11 14 15,51
2'F-ANA at 1 7 8 10 11 12 13 14,72.3
2'F-ANA at 2 5 7 8 10 11 13,49.1
2'F-ANA at 1 5 6 7 9 10 11 13 14,44.5
2'F-ANA at 1 3 4 5 6 7 8 9 10 12 13 14,48.3
2'F-ANA at 5 8 9 13 15,69.9
2'F-ANA at 1 2 4 8 10 11 15,48.5
2'F-ANA at 1 2 4 5 6 14 15,64.2
2'F-ANA at 1 3 4 5 6 8 10 11 12 13 15,49.6

# Some of these lines once more (block 2):
Variant,normalised enrichment score
ASAKRRLFGEDPP [G1A],0.289
GSAKRRLFREDPP [G9R],0.195
GSAKRLLFGEDPP [R6L],-0.585
GSAKRRLFGEDPY [P13Y],-0.00986
GSAKKRLLGEDPP [R5K F8L],0.237
